Results from different studies.
Lines come from different studies, so protocols differ. “And” joins repeats or separate records; there may be more than shown. Numbers after ± are the reported error. In brackets after ≈: the same amount, converted by molar mass.

SMILES	tested on	test	test system	setting	scale	endpoint	value
CC[C@H](C)CCCCC(=O)N[C@@H](CCN)C(=O)N[C@H](C(=O)N[C@@H](CCN)C(=O)N[C@H]1CCNC(=O)[C@H]([C@@H](C)O)NC(=O)[C@H](CCN)NC(=O)[C@H](CCN)NC(=O)[C@H](CC(C)C)NC(=O)[C@@H](CC(C)C)NC(=O)[C@H](CCN)NC1=O)[C@@H](C)O	Escherichia coli	daily serial passaging	ATCC 8739	highest sub-MIC, 3 days	relative to: initial MIC	MIC fold change	1.26
CCOC(=O)C1(Cc2cc(F)c(F)c(F)c2)Oc2cc(F)ccc2N(Cc2cc(F)c(F)c(F)c2)C1=O (stereo not shown)	Arabidopsis thaliana	root length, petri dish germination	Col-0, 1/2 MS medium	200 µg/mL, 7 days, 22 °C, dark		inhibition	45.5%
Fc1cccc(COc2ccc(Nc3ncnc4ccc(-c5cccc(N6CCCCC6)c5)cc34)cc2Cl)c1	Plasmodium falciparum	parasite growth, SYBR Green	D6	blood stage		EC50	640 nM
COc1ccc(C2=[N+]([O-])c3ccccc3N3CCCN=C23)cc1	Fusobacterium nucleatum	microbial growth				MIC50	0.5 µg/mL (≈ 1.63 µM)
CCCCCCCC(=O)NCCCC[C@H](NC(=O)CCCCCCC)C(=O)N[C@@H](CCCCNC(=O)CCCCCCC)C(=O)NCC(=O)NCC(=O)NCC(=O)N[C@@H](CS)C(=O)N[C@@H](CCCNC(=N)N)C(=O)N[C@@H](CCCCN)C(=O)N1CCC[C@H]1C(=O)N[C@@H](CS)C(=O)N[C@@H](CCCNC(=N)N)C(=O)N[C@@H](CCCCN)C(=O)N1CCC[C@H]1C(N)=O	Candida albicans	broth microdilution	SP 3931, RPMI-1640	48 h, 30 °C		MIC	16 µM (≈ 28.7 µg/mL)
CC(C)[C@H]1NC(=O)[C@H](Cc2ccc(O)cc2)NC(=O)[C@@H](C(C)C)NC(=O)[C@@H](C)NC(=O)[C@H](CO)NC(=O)[C@@H](Cc2c(-c3ccc(-c4ccc5ccccc5c4)cc3)[nH]c3ccccc23)NC(=O)[C@@H](CO)NC1=O	Candida albicans	broth dilution				MIC90	> 50 µM
C[N+]1=C2C(c3ccc(Cl)cc3)=[N+]([O-])c3ccccc3N2CCC1	Fusobacterium nucleatum					MIC90	8 µg/mL
CCOC(=O)C1(Cc2ccccc2)Oc2ccccc2N(Cc2ccccc2)C1=O (stereo not shown)	Arabidopsis thaliana		Col-0	200 mg/mL		root growth inhibition	inhibited
CC(C)[C@H]1NC(=O)CNC(=O)[C@H](CO)NC(=O)[C@@H](Cc2c(-c3ccc(-c4ccc5ccccc5c4)cc3)[nH]c3ccccc23)NC(=O)[C@@H](CO)NC(=O)[C@@H](C(C)C)NC(=O)[C@H](Cc2ccccc2)NC1=O	Candida albicans	broth dilution				MIC90	> 50 µM
CCOC(=O)C1(CC)Oc2cc(F)ccc2N(CC)C1=O (stereo not shown)	Arabidopsis thaliana	stem length, petri dish germination	Col-0, 1/2 MS medium	200 µg/mL, 7 days, 22 °C, dark		inhibition	100%
CS(=O)(=O)c1ccc(-c2ccc3ncnc(Nc4ccc(OCc5cccc(F)c5)c(Cl)c4)c3c2)cc1	Plasmodium falciparum	parasite growth, SYBR Green fluorescence	W2, drug-resistant			EC50	360 nM
FC(F)(F)c1cccc(CNc2nc(NC3CCN(Cc4ccccc4)CC3)c3nc[nH]c3n2)c1	Cryptococcus neoformans	mRNA level, RNA-seq, refers to: CNAG_00388		48 µg/mL, 3 h	relative to: untreated	fold change	1.26
CCCCCC[C@H]1C(=O)O[C@H](C)[C@H](NC(=O)c2cccc(NC=O)c2O)C(=O)O[C@@H](C)[C@@H]1OC(=O)CC(C)C	Bovine alphaherpesvirus 1	viral replication	MDBK			IC50	~46 nM
[2H]C([2H])(c1cc(F)c(F)cc1F)n1c(=O)n(Cc2ncn(C)n2)c(=O)[nH]/c1=N\c1cc2cn(C)nc2cc1Cl	feline infectious peritonitis virus	viral replication, qRT-PCR	CRFK	48 h		IC50	50400 nM
CN(C(=O)c1ccn2ncc(-c3ccc(C(N)=O)cc3)c2c1)c1ccc(C#N)cn1	Cryptosporidium parvum		UGA1 Nluc, IFN-gamma knockout C57BL/6 mice, faeces	oral, 10 mg/kg daily, 240 h post infection, treatment days 11-17	higher means more parasites	faecal Nluc luminescence	39100 a.u. and 97800 a.u. and 151000 a.u. and 45400 a.u.
O=C1NC2(CC2)COc2ncc(F)cc2[C@H]2COCCN2c2ccn3ncc1c3n2			Sprague-Dawley rat, female, thymus	oral, 20 mg/kg/day, 4 weeks, end of treatment		organ-to-body weight ratio	0.165 ± 0.039%
CCN(CC)CCCC(C)Nc1ccnc2cc(Cl)ccc12 (stereo not shown)	Plasmodium falciparum	parasite growth	3D7			EC50	55.5 ± 27.3 nM
CCOC(=O)C1(Cc2ccc(OC)cc2)Oc2cc(F)ccc2N(Cc2ccc(OC)cc2)C1=O (stereo not shown)	Arabidopsis thaliana	stem length, petri dish germination	Col-0, 1/2 MS medium	50 µg/mL, 7 days, 22 °C, dark		inhibition	38.5%
O=S(=O)(c1ccc(-c2ccc3ncnc(Nc4ccc(OCc5cccc(F)c5)c(Cl)c4)c3c2)cc1)N1CCNCC1	Plasmodium falciparum	parasite growth, SYBR Green fluorescence	C235 (TM91C235), drug-resistant			EC50	120 nM
CCN1CCN(Cc2ccc(CNc3nc(N(C)C)nc(N(C)C)c3/N=N/c3ccc(Cl)cc3)cc2)CC1	Plutella xylostella	leaf dipping		200 mg/L, 96 h		mortality	86.7 ± 5.8%

SMILES	tested on	test	test system	setting	scale	endpoint	value
CC(=O)c1c(O)c(C)c(O)c2c1OC1=CC(=O)C(=C(C)NCCCC(=O)OC3OC4OC5(C)CCC6C(C)CCC(C3C)C46OO5)C(=O)C12C (stereo not shown)	Plasmodium berghei		ANKA GFP, NMRI mouse	oral, 4 x 10 mg/kg		mean survival time	10 days
CN(C)c1nc(NCc2cccc3ccccc23)c(/N=N/c2ccc(Cl)cc2)c(N(C)C)n1	Plutella xylostella	leaf dipping		200 mg/L, 96 h		mortality	73.3 ± 5.8%
CC(C)C[C@H](NC(=O)[C@H](CC(C)C)NC(=O)[C@H](CCCCN)NC(=O)[C@H](Cc1ccccc1)NC(=O)[C@@H](NC(=O)[C@H](CCCNC(=N)N)NC(=O)[C@@H](N)CCCCN)C(C)C)C(=O)N[C@@H](CCCCN)C(=O)N[C@@H](CCCNC(=N)N)C(=O)N[C@@H](Cc1ccc(O)cc1)C(=O)N[C@@H](Cc1c[nH]c2ccccc12)C(=O)N[C@@H](CCCNC(=N)N)C(=O)N[C@@H](CCC(N)=O)C(=O)N[C@@H](CC(C)C)C(=O)N[C@@H](CCCCN)C(=O)N[C@@H](CCCCN)C(=O)N1CCC[C@H]1C(=O)N[C@H](C(=O)N[C@@H](CCCNC(=N)N)C(=O)NCCOCCOCC(=O)O)C(C)C	Pseudomonas aeruginosa		ATCC 10145-GFP	sub-MIC, 24 h	relative to: untreated	pyocyanin production decrease	> 60%
O=S(=O)(c1ccc(-c2ccc3ncnc(Nc4ccc(OCc5ccc(F)cc5)c(Cl)c4)c3c2)cc1)N1CCOCC1	Plasmodium falciparum	parasite growth, SYBR Green fluorescence	W2, drug-resistant			EC50	360 nM
NCCCO.O=C(O)C(Cl)Cl	Xanthium sibiricum			15 mg/mL, 21 days, pre-emergence, greenhouse		herbicidal inhibition	0%
Cc1cc(C(=O)Nc2nc3cccc(C)c3n2[C@H]2CCCCN(C(=O)/C=C/CN(C)C)C2)ccn1	Trypanosoma brucei	propidium iodide flow cytometry	bloodstream form	concentration not given, 3 h		cells in S phase	17.5%
c1ccc(Nc2ncnc3ccc(-c4cccc(N5CCOCC5)c4)cc23)cc1	Plasmodium falciparum	parasite growth, SYBR Green	D6	blood stage		EC50	3100 nM
C[C@H]1[C@H](OC(=O)CCC(=O)OCc2nnn(-c3cc4ccc(O)cc4oc3=O)c2COC(=O)CCC(=O)O[C@@H]2O[C@@H]3O[C@@]4(C)CC[C@H]5[C@H](C)CC[C@@H]([C@H]2C)[C@@]35OO4)O[C@@H]2O[C@@]3(C)CC[C@H]4[C@H](C)CC[C@@H]1[C@@]24OO3	Plasmodium berghei		NK65/GFP, mouse	subcutaneous, 22 µmol/kg daily for four days		cure rate	25%
CCOC(=O)C1(Cc2ccccc2)Oc2cc(C)ccc2N(Cc2ccccc2)C1=O (stereo not shown)	Arabidopsis thaliana	root length, petri dish germination	Col-0, 1/2 MS medium	200 µg/mL, 7 days, 22 °C, dark		inhibition	100%
CC[C@H](C)[C@H](NC(=O)[C@H](CCCCN)NC(=O)[C@H](CCCNC(=N)N)NC(=O)CNC(=O)[C@@H](NC(=O)CN)C(C)C)C(=O)NCC(=O)N[C@@H](Cc1ccccc1)C(=O)N[C@@H](CCCCN)C(=O)N[C@@H](CCCCN)C(=O)N[C@H](C(=O)N[C@@H](CC(C)C)C(=O)N[C@@H](Cc1ccccc1)C(=O)N[C@@H](Cc1ccccc1)C(=O)N[C@@H](Cc1ccccc1)C(=O)N[C@@H](CCCCN)C(=O)N[C@@H](CCCCN)C(=O)NCC(=O)N[C@@H](Cc1ccc(O)cc1)C(=O)N[C@@H](CCC(=O)O)C(=O)N[C@@H](CCCCN)C(=O)N[C@@H](C)C(=O)N[C@@H](CC(N)=O)C(=O)NCC(=O)NCC(=O)N[C@@H](Cc1ccccc1)C(=O)N[C@H](C(=O)N[C@@H](CCCCN)C(=O)N[C@@H](CCCCN)C(=O)N[C@@H](CCCCN)C(=O)NCC(=O)O)C(C)C)C(C)C	Listeria monocytogenes	broth microdilution, agar subculture	ATCC 7644, CaMHB			MBC	> 1020 µM
CC(=O)c1c(O)c(C)c(O)c2c1OC1=CC(=O)C(=C(C)NCCCCOC3OC4OC5(C)CCC6C(C)CCC(C3C)C46OO5)C(=O)C12C (mixture of isomers)	Plasmodium berghei		ANKA GFP, NMRI mouse	oral, 4 x 3 mg/kg		mean survival time	4 days
CCOC(=O)C1(C)Oc2cc(F)ccc2N(C)C1=O (stereo not shown)	Arabidopsis thaliana	root length, petri dish germination	Col-0, 1/2 MS medium	50 µg/mL, 7 days, 22 °C, dark		inhibition	72.4%
Cn1ncc2c(Nc3ccccc3Cl)nc(Nc3ccccc3Cl)nc21	HIV-1 subtype C	viral replication		96 h		IC50	94400 nM
CCOC(=O)C1(Cc2ccccc2F)Oc2cc(F)ccc2N(Cc2ccccc2F)C1=O (stereo not shown)	Arabidopsis thaliana	stem length, petri dish germination	Col-0, 1/2 MS medium	200 µg/mL, 7 days, 22 °C, dark		inhibition	71%
CN(C)c1cccc(-c2ccc3ncnc(Nc4ccc(OCc5cccc(F)c5)c(Cl)c4)c3c2)c1	Plasmodium falciparum	parasite growth, SYBR Green fluorescence	W2, drug-resistant			EC50	1400 nM
CCOC(=O)C1(CC#N)Oc2cc(F)ccc2N(CC#N)C1=O (stereo not shown)	Arabidopsis thaliana	stem length, petri dish germination	Col-0, 1/2 MS medium	50 µg/mL, 7 days, 22 °C, dark		inhibition	45.5%
COc1ccc(Nc2ncnc3ccc(-c4ccc(S(=O)(=O)N5CCOCC5)cc4)cc23)cc1Cl	Plasmodium falciparum	parasite growth, SYBR Green fluorescence	W2, drug-resistant			EC50	1700 nM
[O-][N+]1=C(c2ccc(Cl)cc2)C2=NCCCCN2c2ccccc21	Fusobacterium nucleatum					MIC90	0.5 µg/mL
CCCCCCCC(=O)NCCCC[C@H](NC(=O)CCCCCCC)C(=O)N[C@@H](CCCCNC(=O)CCCCCCC)C(=O)NCC(=O)NCC(=O)NCC(=O)N[C@@H](CS)C(=O)N[C@@H](CCCNC(=N)N)C(=O)N[C@@H](CCCCN)C(=O)N1CCC[C@H]1C(=O)N[C@@H](CS)C(=O)N[C@@H](CCCNC(=N)N)C(=O)N[C@@H](CCCCN)C(=O)N1CCC[C@H]1C(=O)N[C@@H](CS)C(=O)N[C@@H](CCCNC(=N)N)C(=O)N[C@@H](CCCCN)C(=O)N1CCC[C@H]1C(N)=O	Candida albicans	broth microdilution	14936, RPMI-1640	48 h, 30 °C		MIC	8 µM (≈ 18.2 µg/mL)
Fc1cccc(COc2ccc(Nc3ncnc4ccc(-c5cccc(N6CCSCC6)c5)cc34)cc2Cl)c1	Plasmodium falciparum	parasite growth, SYBR Green fluorescence	W2, drug-resistant			EC50	1300 nM
